# Experimental data pooled from the literature.
# Each numbered part is a random draw from the data of one study; scales do not carry over between parts. Changes are numbered by the printed parent chain.

# Series 1 — method: protein-binding microarray; form: double-stranded DNA, one strand shown; medium: in vitro; tested at: not given; direction: higher = stronger binding
# Target: Myc proto-oncogene protein, bHLH-zipper, MAX partner unstated (MYC, Homo sapiens, UniProt P01106, residues 368-449)
# Sequence of UniProt P01106 (368-449, looked up): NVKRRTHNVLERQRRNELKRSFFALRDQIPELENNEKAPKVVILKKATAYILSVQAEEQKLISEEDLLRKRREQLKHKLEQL
# Setting: k-mer, scored over probes, only values ≥0.25
Oligonucleotide,E-score
CCCCATGA,0.258
ATGCGCTC,0.3
AAAACATG,0.269
ATCGTGCA,0.265
CGCGCTGC,0.279
CACATTGC,0.327
CGCGTGCA,0.457
ATGGCCCC,0.291

# Series 2 — method: RNA Bind-n-Seq; form: RNA; medium: in vitro; tested at: not given; relative to: input RNA pool; direction: higher = stronger binding
# Target: RING finger protein unkempt homolog, zinc fingers 1-6, GST-SBP tag (UNK, Homo sapiens, UniProt Q9C0B0, residues 30-357)
# Sequence of UniProt Q9C0B0 (30-357, looked up): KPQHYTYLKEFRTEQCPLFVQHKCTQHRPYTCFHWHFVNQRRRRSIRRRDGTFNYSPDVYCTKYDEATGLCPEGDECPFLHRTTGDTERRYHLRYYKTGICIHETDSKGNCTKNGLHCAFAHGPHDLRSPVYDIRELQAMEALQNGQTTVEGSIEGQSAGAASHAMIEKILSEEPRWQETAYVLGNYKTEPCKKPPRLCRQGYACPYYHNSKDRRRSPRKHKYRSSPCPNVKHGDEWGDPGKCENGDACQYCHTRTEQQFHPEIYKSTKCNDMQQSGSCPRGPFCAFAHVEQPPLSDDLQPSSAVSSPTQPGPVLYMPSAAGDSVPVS
# Setting: RNA with constant flanks, human and mouse sites, ends assumed
Oligonucleotide,bound/input enrichment [ratio]
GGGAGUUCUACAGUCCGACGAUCGGUGCAUUUCCUGAUGCCCAGCUUCCUUCUAAGAGGAUCAUUGGCCCCAAAAAUUAUGAAUUCUUAAAGUCAAAGAGGGAAGAGUUCCAAGAAUAUCUACAGAAACUUCUGCAGCAUCCACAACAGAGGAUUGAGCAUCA,0.194
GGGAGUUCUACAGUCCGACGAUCACUAGAAUCCCGUCGUAAAUACAUGGCUCGUCUAAUUCAGAAGCUUCGCUAUAGGUGAGCAAGUCUUGGCUUGGUGUGUAUCUUACUGUUUUUGUUGCAUUUAGGAUGCUGCAGCUGAUUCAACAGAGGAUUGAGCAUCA,0.303
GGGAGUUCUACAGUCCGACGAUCCUUCGGAAUGCACUACAACAGGAAAAUCAUAUUAUAGAUGGAGUAAAGGUCCAGGUUCACACUAGAAGGCCAAAACUUCCGCAAACAUCUGAUGAUGAAAAGAAAGAUUUUUGAGACUGCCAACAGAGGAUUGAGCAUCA,0.218
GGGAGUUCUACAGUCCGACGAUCUGGGACUUGGCUAGUGGCAAAUUAAAACUGUCAUUGACUGGGCAUAUUAGUACUGUGCGGGGCGUGAUAGUAAGCACAAGGAGCCCAUAUCUGUUCUCUUGUGGAGAAGACAAACAAGUGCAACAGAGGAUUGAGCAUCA,0.533
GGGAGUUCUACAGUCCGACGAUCUGUUUGCACCAGGCUGAAUAUUCUGAACUGGUCGAAACAUUACUAUCAAGUCAGCAAGACCCAGUUAUUUACCAGAGAUUAGCAGAUGCCUUCAACAAGCUCACUGCAAGCAGCACUCCUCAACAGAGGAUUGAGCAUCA,0.259
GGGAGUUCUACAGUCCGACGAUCGGCAAAGGCAAAGGCGGCUCCGGAGAUUCGGCCGUGAAGCAGGUGCAGAUCGACGGCCUGGUAGUAUUAAAGAUAAUCAAACAUUAUCAAGAAGAAGGACAAGGCACUGAGGUUGUUCAGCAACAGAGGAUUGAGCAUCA,0.481
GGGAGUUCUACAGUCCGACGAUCGAAACCAAGUAUCUUUUACCAAGUCUGGAAAAAGAAUUAUUCUUGGCAGAGCACAGUGAUCUUGAAGAAGGUGGACUGGAUCUGAAUGUCUCCUUAAAACCUGUUAGUUUCUAUAUAUCACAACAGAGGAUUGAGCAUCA,1.48
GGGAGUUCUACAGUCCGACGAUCUUUUUUGGAAAAUUGAACCGAACUUCUACUGAAUACAAGAUGAAAAUGUGGUUGCUGGUCAGUCAUCUUGUGAUAAUAUCUAUUACUACCUGUUUAGCAGAGUUUACAUGGUAUAGAAGACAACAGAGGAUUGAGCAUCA,0.461

# Series 3 — observed: peptide-MHC binding; form: peptide; tested at: concentration not given
# Target: HLA class I histocompatibility antigen, C alpha chain, allele C*04:01 (Homo sapiens, UniProt P10321)
Sequence,binding
FETMVFPAV,inactive
YSRMLYIEF,inactive
RVRSMANVY,inactive
RPRPRTPEW,inactive
FLLENAAYL,inactive
FPRYPLNVL,inactive
LEMQHLISL,inactive

# Series 4 — target: CCND1, cyclin fold, Cln2 fusion (human); method: yeast growth competition, sequencing; medium: yeast; setting: strong parent motif; relative to: not given; direction: higher = stronger binding
# Starting sequence: viral docking peptide; YKVKRRLVFGADD; partner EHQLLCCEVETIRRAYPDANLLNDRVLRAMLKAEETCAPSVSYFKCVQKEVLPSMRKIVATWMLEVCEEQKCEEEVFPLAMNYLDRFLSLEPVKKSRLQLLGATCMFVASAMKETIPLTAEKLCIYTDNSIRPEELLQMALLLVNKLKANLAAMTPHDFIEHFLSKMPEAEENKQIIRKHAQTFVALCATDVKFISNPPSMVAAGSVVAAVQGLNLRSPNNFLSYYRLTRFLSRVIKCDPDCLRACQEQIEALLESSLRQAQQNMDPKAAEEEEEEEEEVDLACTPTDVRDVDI
Substitution,normalised enrichment score
YKVKRRLHFGADD [V8H],1.33
YKVKFRLVFGADD [R5F],0.32
YKVKRRLVFGAED [D12E],2.02
YKGKRRLVFGADD [V3G],0.418
YKVKRRLVFPADD [G10P],2.76
YSVKRRLVFGADD [K2S],2.89
YKVKRSLVFGADD [R6S],0.433
YWVKRRLVFGADD [K2W],0.265
YKVLRRLVFGADD [K4L],0.68
YKVKRRLPFGADD [V8P],0.0404
YKVKRRLVFQADD [G10Q],1.51
YKVKRRLVLGADD [F9L],0.189
YKVKRRLVKGADD [F9K],-0.154
YKVKKRLVLGADD [R5K F9L],-0.2

# Repeated from above (series 2):
Oligonucleotide,bound/input enrichment [ratio]
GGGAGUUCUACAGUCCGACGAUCACUAGAAUCCCGUCGUAAAUACAUGGCUCGUCUAAUUCAGAAGCUUCGCUAUAGGUGAGCAAGUCUUGGCUUGGUGUGUAUCUUACUGUUUUUGUUGCAUUUAGGAUGCUGCAGCUGAUUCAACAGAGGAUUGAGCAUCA,0.303
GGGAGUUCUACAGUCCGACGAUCUGUUUGCACCAGGCUGAAUAUUCUGAACUGGUCGAAACAUUACUAUCAAGUCAGCAAGACCCAGUUAUUUACCAGAGAUUAGCAGAUGCCUUCAACAAGCUCACUGCAAGCAGCACUCCUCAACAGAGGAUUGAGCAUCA,0.259
